Measured values gathered from unrelated publications.
Protocols differ between the studies behind these lines.
Sample: plasma

Structure (SMILES) | host | route | dose | notes | clearance
C[C@@H](Nc1nc2c(cnn2C(C)(C)C)c(=O)n1Cc1cccc(F)c1)c1ccc(Cl)cc1 | C57BL/6 mouse | intravenous | 2.5 mg/kg |  | 27.9 mL/min/kg
N#CCCC1CCN(C(=S)c2ccc(-c3cc(Cl)ccc3Cl)o2)CC1 | male BALB/c mouse | intravenous | 5 mg/kg |  | 66.6 mL/min/kg
Cn1c2cc([S+](C)[O-])sc2c2cnn(Cc3cccc(N)c3)c(=O)c21 (stereo not shown) | male BALB/c mouse | intravenous | 1 mg/kg | single dose | 17.1 mL/min/kg
O=S(=O)(N[C@H]1CCC[C@@H](N2c3ccccc3CCc3ccccc32)[C@@H]1O)c1ccc(OC(F)(F)F)cc1 | mouse | intravenous | 1 mg/kg |  | 32.5 mL/min/kg
CC(=O)N1CCC=C(c2cc3c(Nc4cc5ncsc5cc4F)ncnc3s2)C1 | mouse | intravenous | 10 mg/kg |  | 0.15 mL/min/kg
FC(F)(F)Oc1ccc2[nH]c(-c3ccc(OCCN4CCOCC4)cn3)nc2c1 | mouse | intraperitoneal | 100 mg/kg |  | 0.75 mL/min
O=C(NCCCCc1ccccc1)n1c(=O)oc2cc(-c3ccc(F)cc3)ccc21 | CD-1 mouse | intravenous | 1 mg/kg |  | 17.7 mL/min/kg
C/C(N)=N/C(=N\S(=O)(=O)c1ccc(C(F)(F)F)cc1)N1C[C@H](c2ccccc2)C(c2ccc(Cl)cc2)=N1 | C57BL/6 mouse | intravenous | 10 mg/kg |  | 15.9 mL/min/kg
CC(C)(C)c1cnc(CSc2cnc(NC(=O)C3CCN(C(=O)CCCCCCCN4Cc5cc6c(cc5C4)C(=O)N(C4CCC(=O)NC4=O)C6=O)CC3)s2)o1 (stereo not shown) | mouse | intravenous | 2 mg/kg |  | 312 mL/min/kg
Cc1cc(C(=O)N[C@@H](CC(=O)NC(C)(C)C)C(=O)NCCNC(=O)c2cc(-c3ccccc3)ccn2)no1 | mouse | intravenous | 0.1 mg/kg |  | 119 mL/min/kg
CCC1(CC)CC(=O)N(C2c3cc(C(=O)NC4c5ccccc5CC4O)ccc3OC2(C)COC)C(=N)N1 (stereo not shown) | male C57BL/6 mouse | intravenous | 2 mg/kg |  | 39.8 mL/min/kg
O=C1CCC(N2Cc3cc(C(=O)O)c(F)cc3C2=O)C(=O)N1 (stereo not shown) | male CD-1 mouse | intravenous | 1 mg/kg |  | 36.2 mL/min/kg
O=C1CCC(N2C(=O)c3ccc(N4CCC(C(=O)N5CCC(CCN6CCC(CNC(=O)c7cccc(-c8noc(C(F)(F)F)n8)c7)(c7nc(-c8ccccc8)cs7)CC6)CC5)CC4)cc3C2=O)C(=O)N1 (stereo not shown) | CD-1 mouse | intraperitoneal | 30 mg/kg |  | 41.5 mL/min/kg
O=C(C1CC1)N1CCC=C(c2cc3c(Nc4cc5ncsc5cc4F)ncnc3s2)C1 | mouse | intravenous | 10 mg/kg |  | 0.62 mL/min/kg
Cc1cc(NCC(=O)C(C)(C)C)c2nc(N3CCOC[C@H]3C)cc(=O)n2c1 | C57BL/6 mouse | intraperitoneal | 10 mg/kg | single dose | 72 mL/min/kg
CCOC(=O)c1nc2cc(Cl)c(Cl)cc2nc1N1CCN(C(=O)Nc2ccc(N3CCNCC3)cc2)CC1 | male mouse | intravenous | 3 mg/kg |  | 67 mL/min/kg
